Measured values pooled from the literature.
A part holds a random share of what one study measured. Several values in a cell are separate wells, animals, samples, runs or records.
Sequence of UniProt P27037 (whole entry, looked up): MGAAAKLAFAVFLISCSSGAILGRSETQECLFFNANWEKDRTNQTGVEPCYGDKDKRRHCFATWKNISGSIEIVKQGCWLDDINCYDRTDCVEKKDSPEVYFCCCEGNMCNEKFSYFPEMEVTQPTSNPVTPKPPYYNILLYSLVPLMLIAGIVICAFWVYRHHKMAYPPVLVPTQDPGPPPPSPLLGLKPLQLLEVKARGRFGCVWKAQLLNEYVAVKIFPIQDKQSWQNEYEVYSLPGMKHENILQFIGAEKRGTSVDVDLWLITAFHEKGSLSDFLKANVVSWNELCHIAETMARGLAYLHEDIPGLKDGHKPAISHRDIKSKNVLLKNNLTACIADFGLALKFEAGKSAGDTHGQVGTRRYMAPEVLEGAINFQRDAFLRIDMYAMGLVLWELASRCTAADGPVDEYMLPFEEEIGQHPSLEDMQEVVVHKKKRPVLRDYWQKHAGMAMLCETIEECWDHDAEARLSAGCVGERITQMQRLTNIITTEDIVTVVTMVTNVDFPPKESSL
Sequence of UniProt P23458 (whole entry, looked up): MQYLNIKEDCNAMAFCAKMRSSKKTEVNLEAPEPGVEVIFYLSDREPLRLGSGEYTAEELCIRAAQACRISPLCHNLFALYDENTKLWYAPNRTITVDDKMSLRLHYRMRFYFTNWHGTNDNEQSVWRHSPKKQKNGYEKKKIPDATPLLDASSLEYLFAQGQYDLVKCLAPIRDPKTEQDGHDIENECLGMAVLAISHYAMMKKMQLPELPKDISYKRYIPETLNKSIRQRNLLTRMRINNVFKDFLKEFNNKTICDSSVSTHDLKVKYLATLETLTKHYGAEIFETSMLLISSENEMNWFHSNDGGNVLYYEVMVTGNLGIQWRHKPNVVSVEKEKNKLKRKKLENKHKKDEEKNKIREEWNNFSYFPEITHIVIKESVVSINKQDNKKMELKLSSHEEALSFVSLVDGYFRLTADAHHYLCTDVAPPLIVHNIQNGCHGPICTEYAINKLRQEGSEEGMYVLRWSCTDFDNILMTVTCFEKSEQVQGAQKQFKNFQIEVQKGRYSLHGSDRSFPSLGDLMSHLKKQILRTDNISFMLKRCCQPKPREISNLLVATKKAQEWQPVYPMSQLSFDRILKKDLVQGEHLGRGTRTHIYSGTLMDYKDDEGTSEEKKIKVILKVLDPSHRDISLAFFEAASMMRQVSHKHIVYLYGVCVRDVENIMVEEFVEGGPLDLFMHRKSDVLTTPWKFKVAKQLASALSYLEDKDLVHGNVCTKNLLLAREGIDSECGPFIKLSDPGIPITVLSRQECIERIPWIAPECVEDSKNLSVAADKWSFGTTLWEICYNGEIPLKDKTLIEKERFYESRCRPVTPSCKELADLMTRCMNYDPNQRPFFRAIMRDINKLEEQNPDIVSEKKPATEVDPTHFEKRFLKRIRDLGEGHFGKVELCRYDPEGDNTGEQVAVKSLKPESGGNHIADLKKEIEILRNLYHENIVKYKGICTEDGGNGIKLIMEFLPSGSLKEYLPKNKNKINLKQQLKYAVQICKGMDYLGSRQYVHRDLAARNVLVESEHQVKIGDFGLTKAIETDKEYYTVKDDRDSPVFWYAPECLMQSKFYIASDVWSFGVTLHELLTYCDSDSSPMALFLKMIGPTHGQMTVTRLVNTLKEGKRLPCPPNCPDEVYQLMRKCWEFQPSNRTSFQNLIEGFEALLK
Sequence of UniProt P49760 (whole entry, looked up): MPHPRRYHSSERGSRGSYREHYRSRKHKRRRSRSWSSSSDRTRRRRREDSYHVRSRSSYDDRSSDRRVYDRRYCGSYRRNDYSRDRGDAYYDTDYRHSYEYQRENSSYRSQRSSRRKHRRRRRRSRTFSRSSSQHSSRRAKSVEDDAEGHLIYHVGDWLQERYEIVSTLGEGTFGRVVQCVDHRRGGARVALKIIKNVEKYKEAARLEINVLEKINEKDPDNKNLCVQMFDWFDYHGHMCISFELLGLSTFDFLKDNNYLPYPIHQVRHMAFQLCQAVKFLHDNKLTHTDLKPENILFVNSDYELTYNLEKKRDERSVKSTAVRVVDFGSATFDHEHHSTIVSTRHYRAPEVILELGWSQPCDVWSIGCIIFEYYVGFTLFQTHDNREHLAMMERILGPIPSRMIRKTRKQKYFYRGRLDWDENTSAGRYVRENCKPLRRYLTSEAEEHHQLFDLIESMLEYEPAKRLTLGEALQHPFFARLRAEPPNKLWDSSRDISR
Sequence of UniProt O14976 (whole entry, looked up): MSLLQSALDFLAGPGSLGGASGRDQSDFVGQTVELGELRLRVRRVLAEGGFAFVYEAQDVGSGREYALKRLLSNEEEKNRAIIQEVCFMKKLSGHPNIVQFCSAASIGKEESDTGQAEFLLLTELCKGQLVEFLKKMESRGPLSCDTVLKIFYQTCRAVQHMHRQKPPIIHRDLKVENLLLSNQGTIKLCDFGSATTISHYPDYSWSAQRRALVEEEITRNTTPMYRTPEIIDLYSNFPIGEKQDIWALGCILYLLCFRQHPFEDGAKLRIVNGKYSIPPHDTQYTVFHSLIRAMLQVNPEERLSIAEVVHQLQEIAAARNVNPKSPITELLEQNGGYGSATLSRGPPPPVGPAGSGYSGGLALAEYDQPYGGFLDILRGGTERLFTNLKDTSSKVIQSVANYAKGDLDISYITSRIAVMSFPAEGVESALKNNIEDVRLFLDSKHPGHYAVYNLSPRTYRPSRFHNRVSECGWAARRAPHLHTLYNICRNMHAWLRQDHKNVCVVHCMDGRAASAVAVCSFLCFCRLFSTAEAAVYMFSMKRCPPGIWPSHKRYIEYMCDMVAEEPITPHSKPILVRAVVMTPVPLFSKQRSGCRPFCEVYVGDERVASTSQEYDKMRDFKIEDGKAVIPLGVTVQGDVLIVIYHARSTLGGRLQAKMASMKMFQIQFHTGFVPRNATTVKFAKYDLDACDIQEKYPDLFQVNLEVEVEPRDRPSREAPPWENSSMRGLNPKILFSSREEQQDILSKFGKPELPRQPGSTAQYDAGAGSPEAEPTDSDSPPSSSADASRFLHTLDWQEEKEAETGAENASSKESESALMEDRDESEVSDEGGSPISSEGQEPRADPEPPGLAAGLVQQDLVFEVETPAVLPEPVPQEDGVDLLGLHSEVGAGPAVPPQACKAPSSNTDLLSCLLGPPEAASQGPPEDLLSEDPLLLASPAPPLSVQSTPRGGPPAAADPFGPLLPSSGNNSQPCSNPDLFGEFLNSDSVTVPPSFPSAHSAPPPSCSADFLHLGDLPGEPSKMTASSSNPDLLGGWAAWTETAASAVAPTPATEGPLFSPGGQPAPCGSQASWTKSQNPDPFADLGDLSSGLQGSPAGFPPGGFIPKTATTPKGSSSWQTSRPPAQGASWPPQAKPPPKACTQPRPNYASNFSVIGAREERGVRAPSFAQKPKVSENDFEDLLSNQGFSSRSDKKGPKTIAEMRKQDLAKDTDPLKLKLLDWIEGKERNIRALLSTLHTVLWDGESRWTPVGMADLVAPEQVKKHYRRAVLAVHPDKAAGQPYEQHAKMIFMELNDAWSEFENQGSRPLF
Sequence of UniProt P29317 (whole entry, looked up): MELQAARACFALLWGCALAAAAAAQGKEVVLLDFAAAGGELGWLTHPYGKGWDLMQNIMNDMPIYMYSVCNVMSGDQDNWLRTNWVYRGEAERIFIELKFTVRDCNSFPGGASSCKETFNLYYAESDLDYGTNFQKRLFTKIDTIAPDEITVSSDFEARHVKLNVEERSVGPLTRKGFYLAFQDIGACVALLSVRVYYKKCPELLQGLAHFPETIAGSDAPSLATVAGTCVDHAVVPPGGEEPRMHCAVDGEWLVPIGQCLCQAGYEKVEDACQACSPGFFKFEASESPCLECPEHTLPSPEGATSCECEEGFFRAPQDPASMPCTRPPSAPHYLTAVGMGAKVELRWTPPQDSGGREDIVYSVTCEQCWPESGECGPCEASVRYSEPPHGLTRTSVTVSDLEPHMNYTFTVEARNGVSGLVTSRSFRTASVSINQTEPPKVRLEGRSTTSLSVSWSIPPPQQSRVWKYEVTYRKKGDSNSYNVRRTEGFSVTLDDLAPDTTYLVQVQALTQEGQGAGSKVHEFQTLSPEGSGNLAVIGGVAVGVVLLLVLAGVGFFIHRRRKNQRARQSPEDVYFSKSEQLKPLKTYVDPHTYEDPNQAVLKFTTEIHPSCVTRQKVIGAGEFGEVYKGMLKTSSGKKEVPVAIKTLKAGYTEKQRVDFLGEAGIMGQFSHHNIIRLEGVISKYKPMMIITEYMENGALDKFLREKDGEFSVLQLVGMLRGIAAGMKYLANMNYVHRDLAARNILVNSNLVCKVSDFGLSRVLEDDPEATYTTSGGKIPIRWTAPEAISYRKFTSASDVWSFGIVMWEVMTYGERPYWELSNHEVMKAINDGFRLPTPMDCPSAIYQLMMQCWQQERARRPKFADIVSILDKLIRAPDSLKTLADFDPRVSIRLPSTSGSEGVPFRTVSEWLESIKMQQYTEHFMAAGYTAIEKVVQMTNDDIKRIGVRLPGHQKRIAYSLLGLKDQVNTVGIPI
Sequence of UniProt P49137 (whole entry, looked up): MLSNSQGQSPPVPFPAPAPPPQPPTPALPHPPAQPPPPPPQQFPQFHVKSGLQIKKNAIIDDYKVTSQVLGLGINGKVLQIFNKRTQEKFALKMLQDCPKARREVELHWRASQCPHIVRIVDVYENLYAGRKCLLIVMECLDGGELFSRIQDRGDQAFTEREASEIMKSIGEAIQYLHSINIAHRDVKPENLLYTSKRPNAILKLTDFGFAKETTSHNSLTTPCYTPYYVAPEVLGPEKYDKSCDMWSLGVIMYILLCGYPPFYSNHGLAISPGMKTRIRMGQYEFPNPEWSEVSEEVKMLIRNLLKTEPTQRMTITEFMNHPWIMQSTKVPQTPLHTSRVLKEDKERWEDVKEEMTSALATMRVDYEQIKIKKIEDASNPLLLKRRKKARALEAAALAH

Block 1
Species: mouse
Sample: microsomes or S9
Concentration: 2 µM
Time: 0.5 h
Measurement: remaining compound
Cc1cc2nc(CN(C)c3ccccc3)cc(=O)n2o1: 51.4%
CCn1cc(NS(=O)(=O)c2cn(C)c(=O)n(C)c2=O)ccc1=O: 94.2%
c1nc(N2CCCC2)sc1CN1CC[C@H]2OCc3cnnn3[C@H]2C1: 80.4%
c1ccc2c(c1)CCN(c1nnc(-n3cccc3)s1)C2: 0.492%
COc1cc(OC)c(NC(=O)N2Cc3c(sc4c3CCCC4)-n3cccc3C2C)cc1Cl (stereo not drawn): < 1%
COc1ccc(CN2CCC(C(=O)N3CCN(c4cccc(C)c4C)CC3)CC2)c(OC)c1: 20.3%
Cc1ccc(C(C)C)c(OCC(=O)NC2=NCC(=O)N2c2ccccc2)c1: < 1%
CCOC(=O)Cc1cc(=O)n2nc(-c3ccccc3)c(-c3ccccc3)c2[nH]1: 51.1%
O=C(c1cccs1)C1C(C(=O)c2ccco2)C2(C(=O)Nc3ccccc32)C2C=Cc3ccccc3N12 (stereo not drawn): 46.8%
CCN1CCn2c1nc(N1CCOCC1)nc2=O: > 99.9%

Block 2
SMILES: CN(C)C(=O)Cn1cc(-c2nc(C3(c4ccc(-c5cnc(N)nc5)cc4)CC3)no2)cn1
Technique: competition with immobilised ligand
Concentration: 1 µM
Measurement: remaining binding
MAPKAPK2 (Homo sapiens, UniProt P49137); cell-free assay: 99%
STK39 (Homo sapiens, UniProt Q9UEW8); cell-free assay: 100%
GAK (Homo sapiens, UniProt O14976); cell-free assay: 100%
PIP4K2B (Homo sapiens, UniProt P78356); cell-free assay: 71%
FLT3 (Homo sapiens, UniProt P36888, D835V); cell-free assay: 49%
MKNK1 (Homo sapiens, UniProt Q9BUB5); cell-free assay: 85%
ACVR2A (Homo sapiens, UniProt P27037); cell-free assay: 84%
Myosin-IIIa (MYO3A, Homo sapiens, UniProt Q8NEV4); binding: 100%
CDK14 (Homo sapiens, UniProt O94921); cell-free assay: 100%
ALK (Homo sapiens, UniProt Q9UM73, C1156Y); cell-free assay: 100%
Macrophage colony-stimulating factor 1 receptor, autoinhibited (CSF1R, Homo sapiens, UniProt P07333); cell-free assay: 84%

Block 3
Structure (SMILES): c1cc(-c2cnn3cc(-c4ccc(OCCN5CCCCC5)cc4)cnc23)ccn1
Read-out: enzyme activity
Mode: inhibitor
Concentration: 0.5 µM
Relative to: control
Measurement: remaining activity
MAP3K20 (Homo sapiens, UniProt Q9NYL2): 11.7%
JAK1 (Homo sapiens, UniProt P23458): 101%
EPHA2 (Homo sapiens, UniProt P29317): 36.2%
FLT1 (Homo sapiens, UniProt P17948): 59.5%
CLK1 (Homo sapiens, UniProt P49759): 20%
TYRO3 (Homo sapiens, UniProt Q06418): 91.6%
Cyclin-dependent kinase 2, with cyclin E (CDK2, Homo sapiens, UniProt P24941): 77.5%
TEC (Homo sapiens, UniProt P42680): 152%
CSNK1D (Homo sapiens, UniProt P48730): 22.6%
CSNK1E (Homo sapiens, UniProt P49674): 51.6%
CLK2 (Homo sapiens, UniProt P49760): 21.3%
PAK6 (Homo sapiens, UniProt Q9NQU5): 94.2%
SRPK1 (Homo sapiens, UniProt Q96SB4): 97.9%
IGF1R (Homo sapiens, UniProt P08069): 94%
PRKCZ (Homo sapiens, UniProt Q05513): 101%
CAMKK1 (Homo sapiens, UniProt Q8N5S9): 59.2%
RPS6KA3 (Homo sapiens, UniProt P51812): 85.3%
CAMK1 (Homo sapiens, UniProt Q14012): 90.8%
SGK2 (Homo sapiens, UniProt Q9HBY8): 84%

Block 4
SMILES: C[C@@H]1CN(c2ccc(-c3cc(C(=O)NCCOCCOCCOCCOCCNC(=O)Cn4cc(-c5[nH]cc(C(=O)N[C@@H](CC(N)=O)c6ccc(F)c(Cl)c6)c5-c5ccc(Cl)cc5F)cn4)ccc3F)cc2NC(=O)c2c[nH]c(=O)cc2C(F)(F)F)C[C@H](C)N1C
Technique: ATPlite
Measurement: viability
MV4-11; 0.1 µM, 5 days; relative to: DMSO: 64.6% and 85.3% and 78.1%
MV4-11 expressing HiBiT-WDR5; RPMI with 10% FBS; 227 nM, 24 h: 119% and 139% and 117%
MV4-11; 1 µM, 5 days; relative to: DMSO: 67.3% and 54.7% and 79.7%
MV4-11; 0.464 µM, 5 days; relative to: DMSO: 77.2% and 97.9%
MV4-11; 0.0215 µM, 5 days; relative to: DMSO: 108% and 102% and 74.3% and 77.4%
